{"data": "Measured values pooled from the literature", "note": "Every numbered part comes from another study and shows a few of its results, in no order.", "chain of UniProt Q15831 (whole entry, looked up)": "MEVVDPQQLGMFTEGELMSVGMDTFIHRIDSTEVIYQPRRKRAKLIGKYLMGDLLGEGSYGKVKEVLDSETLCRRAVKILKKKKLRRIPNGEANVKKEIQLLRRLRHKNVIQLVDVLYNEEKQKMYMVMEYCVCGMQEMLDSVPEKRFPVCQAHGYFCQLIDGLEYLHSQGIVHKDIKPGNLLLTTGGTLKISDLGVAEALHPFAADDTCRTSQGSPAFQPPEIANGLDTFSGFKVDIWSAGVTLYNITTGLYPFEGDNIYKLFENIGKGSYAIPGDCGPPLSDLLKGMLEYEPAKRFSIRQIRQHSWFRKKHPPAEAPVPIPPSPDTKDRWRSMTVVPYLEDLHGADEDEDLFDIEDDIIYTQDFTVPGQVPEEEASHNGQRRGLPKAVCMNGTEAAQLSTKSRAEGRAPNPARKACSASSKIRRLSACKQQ", "chain of UniProt Q8IYT8 (whole entry, looked up)": "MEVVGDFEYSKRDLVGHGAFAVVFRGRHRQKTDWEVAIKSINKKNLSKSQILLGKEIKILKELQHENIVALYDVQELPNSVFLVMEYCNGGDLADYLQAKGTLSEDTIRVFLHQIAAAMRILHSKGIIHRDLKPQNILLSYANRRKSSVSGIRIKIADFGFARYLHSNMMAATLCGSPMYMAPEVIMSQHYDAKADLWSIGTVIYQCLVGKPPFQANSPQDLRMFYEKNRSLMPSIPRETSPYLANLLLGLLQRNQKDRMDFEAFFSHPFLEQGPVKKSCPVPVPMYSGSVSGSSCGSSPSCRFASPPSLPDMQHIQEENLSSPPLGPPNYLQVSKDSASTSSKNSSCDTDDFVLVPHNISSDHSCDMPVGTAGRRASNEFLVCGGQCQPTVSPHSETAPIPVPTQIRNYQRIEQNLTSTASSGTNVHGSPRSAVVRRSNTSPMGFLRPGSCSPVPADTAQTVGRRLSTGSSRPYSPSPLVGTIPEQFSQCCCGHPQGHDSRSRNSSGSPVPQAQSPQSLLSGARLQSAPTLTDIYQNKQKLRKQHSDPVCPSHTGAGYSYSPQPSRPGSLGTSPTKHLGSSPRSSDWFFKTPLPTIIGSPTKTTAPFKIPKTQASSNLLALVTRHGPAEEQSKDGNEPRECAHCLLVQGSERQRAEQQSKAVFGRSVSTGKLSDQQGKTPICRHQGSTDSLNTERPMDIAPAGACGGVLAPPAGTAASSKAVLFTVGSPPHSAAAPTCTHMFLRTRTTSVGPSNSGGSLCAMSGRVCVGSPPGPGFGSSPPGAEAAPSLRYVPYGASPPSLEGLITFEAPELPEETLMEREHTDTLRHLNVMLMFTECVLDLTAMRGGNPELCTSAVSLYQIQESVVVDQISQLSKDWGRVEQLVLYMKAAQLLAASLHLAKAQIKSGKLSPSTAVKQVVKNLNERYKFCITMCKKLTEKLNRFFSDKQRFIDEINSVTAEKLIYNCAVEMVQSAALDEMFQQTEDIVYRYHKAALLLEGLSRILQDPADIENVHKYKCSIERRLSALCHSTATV", "chain of UniProt P49137 (whole entry, looked up)": "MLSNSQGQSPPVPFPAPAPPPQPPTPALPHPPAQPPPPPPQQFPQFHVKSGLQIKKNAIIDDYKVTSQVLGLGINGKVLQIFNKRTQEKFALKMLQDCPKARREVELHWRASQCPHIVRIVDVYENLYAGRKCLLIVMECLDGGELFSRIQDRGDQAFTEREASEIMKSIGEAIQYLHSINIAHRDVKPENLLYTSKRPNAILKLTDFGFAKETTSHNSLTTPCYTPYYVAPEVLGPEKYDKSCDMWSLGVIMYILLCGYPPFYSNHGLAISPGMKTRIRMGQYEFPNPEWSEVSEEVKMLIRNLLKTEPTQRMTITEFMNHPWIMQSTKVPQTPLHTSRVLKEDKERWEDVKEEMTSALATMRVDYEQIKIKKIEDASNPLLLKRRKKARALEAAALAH", "chain of UniProt Q9UHD2 (whole entry, looked up)": "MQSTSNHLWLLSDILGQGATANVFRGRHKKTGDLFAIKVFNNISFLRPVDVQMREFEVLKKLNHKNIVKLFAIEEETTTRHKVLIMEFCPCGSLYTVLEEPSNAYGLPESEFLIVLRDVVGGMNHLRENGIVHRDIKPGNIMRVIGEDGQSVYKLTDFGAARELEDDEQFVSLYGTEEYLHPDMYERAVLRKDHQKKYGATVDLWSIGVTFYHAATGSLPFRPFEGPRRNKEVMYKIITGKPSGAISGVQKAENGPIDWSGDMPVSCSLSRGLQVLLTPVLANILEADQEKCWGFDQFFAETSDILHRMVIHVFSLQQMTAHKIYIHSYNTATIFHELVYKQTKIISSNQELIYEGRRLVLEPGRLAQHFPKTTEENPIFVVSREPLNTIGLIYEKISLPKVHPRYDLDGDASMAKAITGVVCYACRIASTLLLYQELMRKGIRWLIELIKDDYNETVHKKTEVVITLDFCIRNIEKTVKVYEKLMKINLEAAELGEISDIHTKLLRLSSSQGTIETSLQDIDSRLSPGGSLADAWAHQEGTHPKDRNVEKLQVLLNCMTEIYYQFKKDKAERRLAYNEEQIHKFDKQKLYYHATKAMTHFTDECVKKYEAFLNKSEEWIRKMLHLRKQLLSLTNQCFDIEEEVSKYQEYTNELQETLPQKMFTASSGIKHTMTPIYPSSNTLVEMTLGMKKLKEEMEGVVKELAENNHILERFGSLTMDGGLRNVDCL", "chain of UniProt P29320 (whole entry, looked up)": "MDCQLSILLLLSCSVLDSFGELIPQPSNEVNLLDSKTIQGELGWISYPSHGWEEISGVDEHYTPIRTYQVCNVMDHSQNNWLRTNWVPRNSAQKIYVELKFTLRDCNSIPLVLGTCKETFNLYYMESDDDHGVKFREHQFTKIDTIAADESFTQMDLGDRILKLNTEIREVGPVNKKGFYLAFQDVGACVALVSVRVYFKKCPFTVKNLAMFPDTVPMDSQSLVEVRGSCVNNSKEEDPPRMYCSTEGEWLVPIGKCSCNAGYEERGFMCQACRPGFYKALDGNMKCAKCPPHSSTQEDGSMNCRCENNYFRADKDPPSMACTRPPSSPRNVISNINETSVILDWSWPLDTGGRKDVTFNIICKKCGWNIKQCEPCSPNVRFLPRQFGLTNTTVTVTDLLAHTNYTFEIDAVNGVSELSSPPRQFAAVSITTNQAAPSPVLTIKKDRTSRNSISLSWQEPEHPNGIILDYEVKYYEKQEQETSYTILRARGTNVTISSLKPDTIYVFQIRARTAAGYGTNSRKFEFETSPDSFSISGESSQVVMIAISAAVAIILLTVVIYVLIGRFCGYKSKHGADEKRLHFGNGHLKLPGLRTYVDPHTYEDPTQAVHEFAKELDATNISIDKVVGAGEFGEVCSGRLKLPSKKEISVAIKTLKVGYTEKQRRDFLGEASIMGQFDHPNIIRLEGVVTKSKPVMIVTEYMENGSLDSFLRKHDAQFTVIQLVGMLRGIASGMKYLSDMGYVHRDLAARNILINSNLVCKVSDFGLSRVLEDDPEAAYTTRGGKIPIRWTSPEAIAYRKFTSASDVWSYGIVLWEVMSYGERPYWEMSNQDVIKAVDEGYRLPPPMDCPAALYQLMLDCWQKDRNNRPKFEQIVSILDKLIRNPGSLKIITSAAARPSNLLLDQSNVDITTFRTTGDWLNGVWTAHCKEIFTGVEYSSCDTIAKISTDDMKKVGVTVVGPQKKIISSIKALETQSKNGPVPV", "chain of UniProt P10721 (whole entry, unmodified, looked up)": "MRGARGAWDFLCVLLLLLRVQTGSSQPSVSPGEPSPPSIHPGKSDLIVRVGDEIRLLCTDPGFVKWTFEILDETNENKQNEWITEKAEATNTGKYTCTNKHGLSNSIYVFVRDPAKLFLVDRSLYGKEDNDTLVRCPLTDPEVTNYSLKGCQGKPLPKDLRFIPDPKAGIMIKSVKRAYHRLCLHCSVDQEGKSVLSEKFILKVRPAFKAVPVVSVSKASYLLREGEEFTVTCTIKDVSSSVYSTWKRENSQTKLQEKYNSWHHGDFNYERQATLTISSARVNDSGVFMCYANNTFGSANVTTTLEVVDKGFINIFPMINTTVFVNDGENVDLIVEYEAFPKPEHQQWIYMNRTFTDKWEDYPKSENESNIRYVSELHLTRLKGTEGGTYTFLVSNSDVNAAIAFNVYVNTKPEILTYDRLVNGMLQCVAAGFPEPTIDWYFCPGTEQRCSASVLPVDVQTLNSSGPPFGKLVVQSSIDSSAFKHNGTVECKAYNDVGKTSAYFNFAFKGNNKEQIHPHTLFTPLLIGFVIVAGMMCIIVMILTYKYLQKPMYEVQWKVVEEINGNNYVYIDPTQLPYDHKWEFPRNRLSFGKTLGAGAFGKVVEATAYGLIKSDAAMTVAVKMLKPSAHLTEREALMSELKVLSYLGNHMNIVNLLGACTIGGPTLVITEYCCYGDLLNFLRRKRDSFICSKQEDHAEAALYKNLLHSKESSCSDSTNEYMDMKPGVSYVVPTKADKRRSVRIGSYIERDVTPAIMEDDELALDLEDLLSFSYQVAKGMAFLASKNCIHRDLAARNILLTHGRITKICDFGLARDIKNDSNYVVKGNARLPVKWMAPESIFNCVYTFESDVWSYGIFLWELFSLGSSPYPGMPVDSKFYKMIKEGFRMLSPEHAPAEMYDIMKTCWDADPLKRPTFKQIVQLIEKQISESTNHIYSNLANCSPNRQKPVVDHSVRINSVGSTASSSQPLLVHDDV", "chain of UniProt P27361 (whole entry, looked up)": "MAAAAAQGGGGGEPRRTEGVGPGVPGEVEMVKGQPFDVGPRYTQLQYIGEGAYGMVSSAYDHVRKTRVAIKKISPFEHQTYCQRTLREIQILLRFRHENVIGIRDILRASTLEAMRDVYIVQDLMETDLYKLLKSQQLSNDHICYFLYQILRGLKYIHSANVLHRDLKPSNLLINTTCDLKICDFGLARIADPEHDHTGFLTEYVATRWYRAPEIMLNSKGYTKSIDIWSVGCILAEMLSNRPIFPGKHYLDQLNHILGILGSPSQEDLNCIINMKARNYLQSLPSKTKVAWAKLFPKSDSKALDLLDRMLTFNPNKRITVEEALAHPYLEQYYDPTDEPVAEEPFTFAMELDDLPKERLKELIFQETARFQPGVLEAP"}
{"data": "Set 1", "host": "human", "medium": "microsomes or S9", "tested at": "2 µM", "time": "0.5 h"}
{"Structure (SMILES)": "Cc1n[nH]c(C)c1C12CC3CC(CC(CC(=O)O)(C3)C1)C2", "remaining compound [%]": 99.9}
{"Structure (SMILES)": "CCCN(Cc1nnc(-c2ccco2)o1)C(=O)COc1c(Cl)cc(Cl)c2ccc(C)nc12", "remaining compound [%]": 84}
{"Structure (SMILES)": "Cc1ncc(-c2ccc(C)c(S(=O)(=O)NC(C)(C)C)c2)o1", "remaining compound [%]": 46}
{"Structure (SMILES)": "Cc1nc2sc(C(=O)NC(C)(C)C)c(N)c2c(C)c1C", "remaining compound [%]": 5.12}
{"Structure (SMILES)": "Cc1cc(-c2ccccc2)nc2c(Br)c(=O)[nH]n12", "remaining compound [%]": 37.3}
{"Structure (SMILES)": "CC(C)(C)OC(=O)NC1CCN(c2nccn3c(=O)[nH]nc23)CC1", "remaining compound [%]": 45.3}
{"Structure (SMILES)": "Cn1cc(NC(=O)N2CCCC(S(=O)(=O)N3CCc4ccccc43)C2)cn1 (stereo not drawn)", "remaining compound [%]": 91.4}
{"Structure (SMILES)": "Cn1ncc(C(=O)O)c1NC(=O)c1cc(Br)nn1-c1ncccc1Cl", "remaining compound [%]": 74.8}
{"data": "Set 2", "SMILES": "N#Cc1cnc2cnc(NCc3cccnc3)cc2c1Nc1ccc(F)c(Cl)c1", "effect on": "enzyme activity", "mode": "inhibitor", "tested at": "0.5 µM", "reference": "control"}
{"target": "Serine/threonine-protein kinase Nek6 (NEK6, Homo sapiens, UniProt Q9HC98)", "remaining activity [%]": 104}
{"target": "Rhodopsin kinase GRK7 (GRK7, Homo sapiens, UniProt Q8WTQ7)", "remaining activity [%]": 95.5}
{"target": "MAP kinase-activated protein kinase 2 (MAPKAPK2, Homo sapiens, UniProt P49137)", "remaining activity [%]": 100}
{"target": "Ephrin type-A receptor 3 (EPHA3, Homo sapiens, UniProt P29320)", "remaining activity [%]": 122}
{"target": "Serine/threonine-protein kinase ULK2 (ULK2, Homo sapiens, UniProt Q8IYT8)", "remaining activity [%]": 102}
{"target": "Mitogen-activated protein kinase 3 (MAPK3, Homo sapiens, UniProt P27361)", "remaining activity [%]": 100}
{"target": "Angiopoietin-1 receptor (TEK, Homo sapiens, UniProt Q02763)", "remaining activity [%]": 95.5}
{"target": "Mitogen-activated protein kinase kinase kinase 14 (MAP3K14, Homo sapiens, UniProt Q99558)", "remaining activity [%]": 118}
{"target": "Wee1-like protein kinase (WEE1, Homo sapiens, UniProt P30291)", "remaining activity [%]": 74.3}
{"target": "Tyrosine-protein kinase Mer (MERTK, Homo sapiens, UniProt Q12866)", "remaining activity [%]": 67.2}
{"target": "Tyrosine-protein kinase FRK (FRK, Homo sapiens, UniProt P42685)", "remaining activity [%]": 101}
{"target": "Fibroblast growth factor receptor 1 (FGFR1, Homo sapiens, UniProt P11362)", "remaining activity [%]": 83.4}
{"target": "Casein kinase I isoform gamma-3 (CSNK1G3, Homo sapiens, UniProt Q9Y6M4)", "remaining activity [%]": 103}
{"target": "Serine/threonine-protein kinase TBK1 (TBK1, Homo sapiens, UniProt Q9UHD2)", "remaining activity [%]": 83.4}
{"data": "Set 3", "SMILES": "O=C(Nc1cnc(Oc2ccc(F)cc2)nc1)N1CCc2ncccc2[C@@H]1c1ccc(F)cc1", "effect on": "cell-free assay", "method": "competition with immobilised ligand", "tested at": "1 µM"}
{"target": "Tyrosine-protein kinase ABL1, non-phosphorylated (ABL1, Homo sapiens, UniProt P00519, H396P)", "remaining binding [%]": 97}
{"target": "Serine/threonine-protein kinase PLK2 (PLK2, Homo sapiens, UniProt Q9NYY3)", "remaining binding [%]": 100}
{"target": "Ribosomal protein S6 kinase alpha-2, C-terminal kinase domain (RPS6KA2, Homo sapiens, UniProt Q15349)", "remaining binding [%]": 79}
{"target": "Tyrosine-protein kinase Srms (SRMS, Homo sapiens, UniProt Q9H3Y6)", "remaining binding [%]": 95}
{"target": "Tyrosine-protein kinase ABL1, non-phosphorylated (ABL1, Homo sapiens, UniProt P00519)", "remaining binding [%]": 93}
{"target": "Mast/stem cell growth factor receptor Kit (KIT, Homo sapiens, UniProt P10721, A829P)", "remaining binding [%]": 100}
{"target": "Myosin light chain kinase, smooth muscle (MYLK, Homo sapiens, UniProt Q15746)", "remaining binding [%]": 100}
{"data": "Other studies, line by line"}
{"SMILES": "Cc1ccc(C(=O)Nc2ccc(CN3CCN(C)CC3)c(C(F)(F)F)c2)cc1C#Cc1cnc2cccnn12", "target": "Serine/threonine-protein kinase STK11 (STK11, Homo sapiens, UniProt Q15831)", "test": "cell-free assay", "setting": "1 µM", "measurement": "inhibition", "value": "28%"}
{"note": "Excerpt of the above (set 2):"}
{"target": "Wee1-like protein kinase (WEE1, Homo sapiens, UniProt P30291)", "remaining activity [%]": 74.3}
{"target": "Tyrosine-protein kinase Mer (MERTK, Homo sapiens, UniProt Q12866)", "remaining activity [%]": 67.2}
